Measured values gathered from unrelated publications.
Numbered parts are unrelated; each lists some results of a single study. Positions count from the first letter of the parent shown.

Sample 1 — target: CCND3, cyclin fold, Cln2 fusion (human); technique: yeast growth competition, sequencing; medium: yeast; setting: weak parent motif; reference: not given; direction: higher = stronger binding
Starting sequence: PKN2 docking peptide (human); VSAVQKLDFSDTM; partner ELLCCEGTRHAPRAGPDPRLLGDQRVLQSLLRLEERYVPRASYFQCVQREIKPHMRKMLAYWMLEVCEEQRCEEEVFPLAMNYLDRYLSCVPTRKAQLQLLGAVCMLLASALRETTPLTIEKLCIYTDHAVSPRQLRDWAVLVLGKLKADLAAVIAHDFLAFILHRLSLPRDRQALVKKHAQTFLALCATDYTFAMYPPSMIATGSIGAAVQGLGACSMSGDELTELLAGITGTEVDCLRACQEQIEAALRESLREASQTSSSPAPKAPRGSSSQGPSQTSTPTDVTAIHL
`M13Q`: “normalised enrichment score” 0.0572.
For `D11M`, “normalised enrichment score” read 0.0925.
For `D8W`, “normalised enrichment score” read 0.129.
`D11F` — result for “normalised enrichment score”: 0.0646.
Under “normalised enrichment score”, `T12F` is recorded as 0.167.
Under “normalised enrichment score”, `D8L` is recorded as 0.15.
Under “normalised enrichment score”, `M13P` is recorded as 0.00917.
For `D8T`, “normalised enrichment score” read 0.0357.
Under “normalised enrichment score”, `V1T` is recorded as 0.12.
`S10T` — result for “normalised enrichment score”: 0.107.
`L7Q` — result for “normalised enrichment score”: 0.0841.

Sample 2 — technique: RNA Bind-n-Seq; molecule type: RNA; medium: in vitro; tested at: 365 nM; reference: no-protein control; direction: higher = stronger binding
Target: RNA binding protein fox-1 homolog 2, RRM domain, GST-SBP tag (RBFOX2, Homo sapiens, UniProt O43251-10, residues 100-194)
Setting: natural RNA segment, single round, ends assumed
All sequences stand within: GGGAGUUCUACAGUCCGACGAUC … UGGAAUUCUCGGGUGCCAA
Construct (chain): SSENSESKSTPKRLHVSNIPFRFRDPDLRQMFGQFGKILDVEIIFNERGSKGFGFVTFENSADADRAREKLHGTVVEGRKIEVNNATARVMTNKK
For `UCCUGAUUUUUCCAUAAAACAUGAGUAUUAAGAAAUAAUUCCUGGUUUGGAGAAACUGGAGAAAUCACCCUUUUAAGGAAGAAACACUGGAAAUUUCUGCUAACACCAAG`, “RBNS enrichment (R)” read 0.359.
Under “RBNS enrichment (R)”, `GAAGUCAGAGUAUCAUCUAAAGUUAAGUAGACCCAAGCAAGACAGGGUCUUAAGGCCUGGGUUUAAGUGGGGCUUCUUGUCUGGGGUACCAAGAUAGGGAAAGAAAGAAA` is recorded as 0.256.
Under “RBNS enrichment (R)”, `UGCCACCGGCAGGGGGCCUUUGCUUACAGGGUCUGCAUAGGUUGUUAUGGAUUUGUGACUUUGGCAUGCAGAAGACAAGAGAGUGGUUAAGUGGAUCUUAUCAUUACUGU` is recorded as 0.91.
`AAAACUGAAAGUGUGUGAUAUUUUUGUUGACGUUAUUUAUAAAAAUAUUUCAACGCUGUCAAUAAUUGUCUUUAACCUCCAAGUAGGUCUUGCAGAAUCGUCUUCAUUUC` — result for “RBNS enrichment (R)”: 0.377.
Under “RBNS enrichment (R)”, `UCCUUACCCAGGGUAUCAUAGUUCUAAGAAUGAAAGCACCUUAAAUGCCUUGCACAGAACCAAUUUUUUUUAACUACUGGCCUAUUUUAAUGGUGGUAAAGAGCAUGUUU` is recorded as 17.1.
Under “RBNS enrichment (R)”, `GCAACUUAGUGGAAGGAAUUACUUCCUCCUGAGGCUACAGGCGAGAAAGGUAGGGAUGGGCCAGCCUCCCGUCUCAGCUGUUGGGAGACAGUAGGCAGGCUGAGUGGCCC` is recorded as 2.42.
`AUUUGGACUGUGUGAUUGUGCCUCAGACACUAGACCUCUUCCAGAUGGUUAGGUUGUUCUGUAGACUGGCAAUGAGAUUAGAAGUUCCUAGCUUCAGAUAAAGAUGAAAG`: “RBNS enrichment (R)” 0.296.
For `ACCGCUUAUUCUUUUUGUCUUUUUAACAAACAUAUUAUCCGAAUUUUUUUUCUGCAAGCCACUGAUAGUCUCUGCUAACUAGCUUAAUUGACCUUUUUACAAAGUUUGAU`, “RBNS enrichment (R)” read 0.821.
`CCCAGCUCCCCUCACUAUCUUUUGACACUAAGAUGGAAGGUUACUAAGUUGCAGGAACAGGAUGAAAAUUCUUUAUUACCCUCUUCAACUUUUAGGACGAGCACUUGGGA` — result for “RBNS enrichment (R)”: 0.389.
For `AGUCAUGAAUGUUUUCUUGCCAGGGUCAGUGUUCCCAGGACCUUAGUGCAUGGUCGGGGCAGGAACUGGUGCAUGGAGGCUGCUGGGACCUGGUGAACAGUGUGUGAUUU`, “RBNS enrichment (R)” read 2.75.
Under “RBNS enrichment (R)”, `CUACCCACUCCCCUAGGGUCUCCCAGGCUCAGAAGGGGAUGCACGCCCCCUGUGGUCAAGCCUCUGGUGGGCGUCUUGCCCAGUUCCUGAUGGUUCAAGGGGAGGGGGGA` is recorded as 2.39.
Under “RBNS enrichment (R)”, `CCUCCAUCAGAUGCCUGGGCCUCCUCCAUCAGAUGUCUAGGCCUCCUCCAUCAGAUGCCUGGGCCUCCUCCAUCAGAUGCCUAGGCCUCCUCCAUCAGAUGUCUGGGCCU` is recorded as 0.375.

Sample 3 — technique: universal PBM; molecule type: double-stranded DNA, one strand shown; medium: in vitro; tested at: 600 nM; direction: higher = stronger binding
Target: Sal-like protein 4, full length isoform A (SALL4, Homo sapiens, UniProt Q9UJQ4, residues 1-1053)
Chain of UniProt Q9UJQ4 (whole entry, looked up): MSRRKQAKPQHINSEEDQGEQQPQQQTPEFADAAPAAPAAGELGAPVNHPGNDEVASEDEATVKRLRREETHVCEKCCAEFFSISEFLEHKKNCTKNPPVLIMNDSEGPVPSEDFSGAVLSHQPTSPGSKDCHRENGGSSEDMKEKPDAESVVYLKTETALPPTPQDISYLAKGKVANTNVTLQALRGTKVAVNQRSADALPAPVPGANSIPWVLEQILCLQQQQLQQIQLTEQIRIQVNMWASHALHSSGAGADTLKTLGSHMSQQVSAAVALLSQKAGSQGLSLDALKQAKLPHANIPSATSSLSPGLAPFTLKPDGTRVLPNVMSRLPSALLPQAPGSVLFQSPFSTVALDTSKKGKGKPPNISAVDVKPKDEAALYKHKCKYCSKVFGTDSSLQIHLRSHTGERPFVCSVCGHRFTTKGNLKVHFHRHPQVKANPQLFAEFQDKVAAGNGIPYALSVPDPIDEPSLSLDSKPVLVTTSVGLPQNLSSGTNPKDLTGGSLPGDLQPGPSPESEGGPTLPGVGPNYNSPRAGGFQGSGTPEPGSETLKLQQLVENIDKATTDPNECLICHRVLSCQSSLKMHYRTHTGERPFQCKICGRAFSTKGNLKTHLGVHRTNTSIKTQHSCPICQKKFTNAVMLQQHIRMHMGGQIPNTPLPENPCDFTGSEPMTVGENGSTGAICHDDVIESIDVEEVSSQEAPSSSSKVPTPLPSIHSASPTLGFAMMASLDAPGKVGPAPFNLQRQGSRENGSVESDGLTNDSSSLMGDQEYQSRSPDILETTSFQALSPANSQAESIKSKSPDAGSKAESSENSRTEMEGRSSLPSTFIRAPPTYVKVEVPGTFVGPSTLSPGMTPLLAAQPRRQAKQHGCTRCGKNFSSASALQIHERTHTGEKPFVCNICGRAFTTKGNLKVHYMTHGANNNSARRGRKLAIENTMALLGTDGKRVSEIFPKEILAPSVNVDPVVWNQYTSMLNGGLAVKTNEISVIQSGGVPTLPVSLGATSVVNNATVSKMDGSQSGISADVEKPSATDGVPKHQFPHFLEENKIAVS
Setting: 8-mer, flanks averaged, mean of replicates
`AAGAGGAA` gave an E-score of 0.114.
`AACTTAAC` has an E-score of 0.231.
`ACGGAAAA` has an E-score of 0.163.
With `TACTTTAA` the E-score was 0.277.
`ATCTCCTC` has an E-score of -0.0617.
The E-score of `CTCATAGA` is reported as 0.146.
With `AATGTCTG` the E-score was 0.127.
For `CTAGCCAG`, the E-score was -0.225.
`CTCTCAAA` gave an E-score of 0.0782.
`GTCGCTTA` gave an E-score of -0.0469.
`ACCAACCT` has an E-score of -0.156.
`CACGTCAA` has an E-score of -0.0132.
The E-score of `CCGTAGGC` is reported as -0.142.
With `ATCTGTCG` the E-score was -0.0101.
The E-score of `CGTGTTAA` is reported as 0.146.
For `CGATCGCC`, the E-score was -0.147.
`AACAGCAG` gave an E-score of 0.0647.
The E-score of `CCGGATGA` is reported as -0.258.
For `AGCGATAC`, the E-score was -0.00365.
`CCTAGGAG` gave an E-score of -0.124.
The E-score of `CCCGCTCA` is reported as -0.336.
For `GTCTTGCA`, the E-score was 0.0866.

Mixed results
`PhoQ, residues 284 288 289 292 302 303 AQGLTV` has a fold induction of 1.65 (PhoP, residues 12 14 15 18 19 GQALL (Escherichia coli, UniProt P23836); Sort-seq, measured: YFP reporter; E. coli; PhoQ-PhoP variant library, added: 10 µM Mg2+; reference: high Mg2+ state, higher = stronger signaling).

For quick reference, copied from above (sample 1):
Under “normalised enrichment score”, `D8L` is recorded as 0.15.
`S10T` — result for “normalised enrichment score”: 0.107.
Under “normalised enrichment score”, `M13P` is recorded as 0.00917.
`D11F` — result for “normalised enrichment score”: 0.0646.
